Results of several laboratories.
“And” joins repeats or separate records; there may be more than shown. Numbers after ± are the reported error. Values after ≈ are worked out from the molar mass of the structure shown.

Substance | assay | system | conditions | how to read | quantity | result
O=C(/C=C/c1ccc(O)c(O)c1/C=C/c1ccc(O)c(O)c1)O[C@H](Cc1ccc(O)c(O)c1)C(=O)O | UPLC-MS/MS | Wistar rat, microcirculation dysfunction model, plasma | oral, 100 mg/kg Salvia miltiorrhiza stem-leaf extract FS |  | MRT(0-inf) | 29.2 ± 30.6 h
CC(C)NC[C@@H](C(=O)N1CCN(c2ncnc3c2[C@H](C)C[C@H]3O)CC1)c1ccc(Cl)cc1 |  | human, matched normal hepatic function (Child-Pugh), plasma | oral, 100 mg single, reference geometric mean, vs Mild |  | Cmax | 0.0537 µg/mL
CCOc1ccc(/C=C/c2nc(=O)c3ccccc3o2)cc1 |  | 0.1 M sodium acetate with 0.01% Triton X-100 | pH 5.5 |  | maximum solubility | 20 µM
CCCOc1ccc([C@H]2CNC(=O)N2c2ccc3[nH]cnc3c2)cc1 |  | human, plasma | oral, 1200 mg, single dose, fed, healthy volunteers |  | AUC(0-t) | 17.9 µg·h/mL
OC[C@H]1O[C@@H](c2ccc(Cl)c(Cc3ccc(O[C@H]4CCOC4)cc3)c2)[C@H](O)[C@@H](O)[C@@H]1O |  | male ICR mouse, kidney | oral, 3 mg/kg, 24 h |  | AUC | 4.2 µg·h/mL
Cc1nc2cccc(OCC(C)(C)C(=O)NC(C)C)c2c(N)c1C(=O)O |  | male Sprague-Dawley rat, plasma | oral gavage, 30 mg/kg, day 1 |  | Tmax | 0.33 h
CCc1nc(C(N)=O)c(Nc2ccc(N3CCC(N4CCN(C)CC4)CC3)c(OC)c2)nc1NC1CCOCC1 |  | healthy humans, fasted, plasma | oral, 40 mg, single dose |  | AUC(0-72h) | 0.865 µg·h/mL
CC(C)[C@H](NC(=O)[C@@H]1CCCN1C(=O)[C@H](CCCNC(=N)N)NC(=O)[C@H](CS)NC(=O)[C@H](Cc1c[nH]c2ccccc12)NC(=O)[C@H](CCCNC(=N)N)NC(=O)[C@@H](Cc1ccccc1)NC(=O)[C@H](Cc1c[nH]cn1)NC(=O)[C@H](CCC(=O)O)NC(=O)[C@H](CS)NC(=O)[C@H](CS)NC(=O)[C@H](CCCCN)NC(=O)[C@@H]1CC(=O)N[C@@H](CCCNC(=N)N)C(=O)N[C@@H](C(C)C)C(=O)N[C@@H](CC(=O)O)C(=O)N[C@H](Cc2ccc(O)cc2)C(=O)N1)C(N)=O [technetium-99m labelled] |  | C57 mouse, female, B16/F1 melanoma, stomach | intravenous, 2 h, added: NDP-MSH 10 µg co-injected |  | tissue uptake | 1.39 ± 0.79 %ID/g
Teicoplanin | HPLC | critically ill adult patients, plasma | 676 mg/day, steady state total concentration |  | trough concentration (Cmin) | 20.6 ± 10.4 µg/mL
N=C(N)NC(=O)c1cnn(-c2cccc3ncccc23)c1C1CC1 |  | guinea pig Hartley male, hepatic S9 | 1 µM, pH 7.4, added: hydralazine 50 µM, without NADPH |  | CLint | 0.774 ± 0.152 L/h/kg
CCCCCCCCCCCCCCCCCCOP(=O)([O-])OC1CC[N+](C)(C)CC1 |  | rhesus monkey, male, cerebrospinal fluid | oral, 7 mg/kg, single dose, mean of 3 |  | terminal half-life | 258 h
Cn1cncc1-c1c(F)cncc1NC(=O)c1c(N)nn2cc(F)cnc12 |  | human patients, plasma | oral, 180 mg once daily, steady state | relative to: in vitro pCHK1 IC90 | Cav over IC90 ratio | ~30 fold
CO[C@H]1C[C@@H]2CC[C@@H](C)[C@@](O)(O2)C(=O)C(=O)N2CCCC[C@H]2C(=O)O[C@H]([C@H](C)C[C@@H]2CC[C@@H](OP(C)(C)=O)[C@H](OC)C2)CC(=O)[C@H](C)/C=C(\C)[C@@H](O)[C@@H](OC)C(=O)[C@H](C)C[C@H](C)/C=C/C=C/C=C/1C |  | Japanese patients, whole blood | oral, 20 mg, day 1 |  | t1/2 | 58 ± 8.27 h
C=CC(N)CCC(=O)O (stereo not drawn) |  | male Sprague-Dawley rat, plasma | oral, 10 mg/kg, formulation 9, added: low-fat infant formula 1500 mg/kg |  | Cmax | 9.09 ± 0.301 µg/mL
Cn1nnc2c(C(N)=O)ncn2c1=O |  | FVB mice, Abcg2 knockout | intravenous, 50 mg/kg |  | plasma half-life | 0.719 ± 0.017 h
CCCCCCCCCCCCCNCC(=O)N(CC(=O)N(CCCCN)CC(=O)N(CCN)CC(=O)N(CC(N)=O)CC1CCCCC1)CC1CCCCC1 | preparative RP-HPLC C18 | water to acetonitrile gradient | 0.05% TFA in eluent | higher = more hydrophobic | acetonitrile at elution | 71.4%
Cn1c(-c2ccc(C(N)=O)cc2F)nnc1C(C)(C)Oc1c(F)cc(Cl)cc1F |  | young Japanese adults, plasma | oral, 10 mg single dose, day 1, high-dose multiple-dose study |  | Cmax range over subjects | 0.062 to 0.148 µg/mL
CC1(C)C(/C=C/C=C/C=C/C=C2\N(CCCCS(=O)(=O)O)c3ccc4ccccc4c3C2(C)C)=[N+](CCCCS(=O)(=O)[O-])c2ccc3ccccc3c21 | photoacoustic imaging | mouse Hep3B orthotopic xenograft | intravenous, 2.46 mg/kg |  | time to peak tumour uptake | > 48 h
CCCC[C@@H]1NC(=O)[C@@H](NC(=O)[C@H](CCC(=O)O)NC(=O)CNC(=O)CN2CCN(CC(=O)O)CCN(CC(=O)O)CCN(CC(=O)O)CC2)CCCCNC(=O)C[C@@H](C(N)=O)NC(=O)[C@H](C(C)C)NC(=O)[C@@H]2CCCN2C(=O)[C@H](CCCNC(=N)N)NC(=O)CNC(=O)[C@H](Cc2c[nH]c3ccccc23)NC(=O)[C@H](CCCNC(=N)N)NC(=O)[C@@H](Cc2ccccc2)NC(=O)[C@H](Cc2c[nH]cn2)NC(=O)[C@H](CCC(=O)O)NC1=O [indium-111 labelled] |  | C57 mice, B16/F10 lung metastatic melanoma, stomach | intravenous, 0.037 MBq, 4 h |  | tissue uptake | 0.05 ± 0.04 %ID/g
colistin B methanesulfonate | one-compartment PK model | rat | i.p., 40 mg/kg colistin base activity |  | rate of conversion to colistin | 0.0876 ± 0.00744 L/h/kg

Substance | assay | system | conditions | how to read | quantity | result
CCOC(=O)c1cn(CC)c2cc(N3CCC(C)CC3)c(F)cc2c1=O |  | human liver microsomes | 1 µM |  | CLint | 205 µL/min/mg
Cn1ncnc1[C@H]1c2n[nH]c(=O)c3cc(F)cc(c23)N[C@@H]1c1ccc(F)cc1 |  | mouse plasma | 1.5 ng/mL, three freeze-thaw cycles |  | freeze-thaw stability deviation | -3.18%
CS(=O)(=O)OC[C@H](O)[C@@H](O)COS(C)(=O)=O |  | Wistar rat, female, red blood cells and plasma | intraperitoneal, 500 mg/kg, 1 h |  | RBC/plasma partition coefficient | 0.68 and 0.64 and 0.45
O=S(=O)(c1cc(Cl)c(O)c2ncccc12)C1CCCC1 |  | rat Sprague-Dawley male, brain | oral, 10 mg/kg, 4 h |  | free concentration | 5.6 nM
CN(C)CC(c1ccc(O)cc1)C1(O)CCCCC1 (stereo not drawn) |  | human, plasma | oral, 225 mg/day, day 15 |  | AUCtau | 8.36 µg·h/mL
C[C@@H](c1ncncc1F)[C@](O)(Cn1cncn1)c1ccc(F)cc1F |  | patients, hematological disorders, CYP2C19 NM with PPI or IM without PPI, plasma | 200 mg, 12 h, steady state, median, combined score 3 |  | trough concentration | 1960 ng/mL
N#Cc1ccc2c(c1)C(=O)CCc1ccccc1C(=O)N2 | nephelometry | aqueous buffer | 30 min, pH 6.5 |  | kinetic solubility | 0.025 to 0.05 mg/mL (≈ 90.5 to 181 µM)
S=C(NCCCc1c[nH]cn1)NCCCN(Cc1ccc(Cl)c(Cl)c1)c1ccc(Br)cn1 |  | male C57BL/6 mice, plasma | intraperitoneal, 30 mg/kg, 12 h |  | plasma concentration | 0.118 µg/mL
CCCC[C@H](NC(C)=O)C(=O)N[C@H]1CCC(=O)NC[C@@H](C(=O)N[C@@H](Cc2c[nH]c3ccccc23)C(N)=O)NC(=O)[C@H](CCCNC(=N)N)NC(=O)[C@@H](Cc2ccccc2)NC(=O)[C@H](Cc2c[nH]cn2)NC1=O |  | healthy human, both sexes, plasma | subcutaneous, 1.0 mg once daily, day 7, arithmetic mean |  | Vss/F | 200 L
CO[C@H]1C[C@@H]2CC[C@@H](C)[C@@](O)(O2)C(=O)C(=O)N2CCCC[C@H]2C(=O)O[C@H]([C@H](C)C[C@@H]2CC[C@@H](O)[C@H](OC)C2)CC(=O)[C@H](C)/C=C(\C)[C@@H](O)[C@@H](OC)C(=O)[C@H](C)C[C@H](C)/C=C/C=C/C=C/1C |  | human, whole blood | nasogastric tube, 5 mg/day |  | trough blood concentration | < 4 ng/mL
CC[C@H](C)[C@H](NC(=O)[C@H](CC(C)C)NC(=O)[C@H](Cc1c[nH]c2ccccc12)NC(=O)[C@H](C)NC(=O)[C@@H](NC(=O)[C@H](Cc1ccccc1)NC(=O)[C@H](CC(=O)O)NC(=O)[C@H](CCCNC(=N)N)NC(=O)[C@H](C)NC(=O)[C@H](C)NC(=O)[C@H](CC(C)C)NC(=O)[C@H](C)NC(=O)[C@H](CC(=O)O)NC(=O)[C@H](CC(C)C)NC(=O)[C@@H](NC(=O)[C@@H](NC(=O)[C@H](C)NC(=O)[C@H](CC(C)C)NC(=O)[C@H](CCC(=O)O)NC(=O)[C@H](CO)NC(=O)[C@H](CO)NC(=O)[C@H](Cc1ccccc1)NC(=O)[C@@H](NC(=O)CNC(=O)[C@H](CCC(=O)O)NC(=O)CNC(=O)[C@@H](N)Cc1cnc[nH]1)[C@@H](C)O)[C@@H](C)O)[C@@H](C)CC)[C@@H](C)CC)C(=O)N[C@@H](C)C(=O)N[C@H](C(=O)N[C@@H](CCCCN)C(=O)N[C@H](C(=O)N[C@H](C(=O)N[C@@H](CC(=O)O)C(=O)N[C@@H](CCCCN)C(=O)N[C@@H](CCCCN)C(=O)N[C@@H](CCCCN)C(=O)N[C@@H](CCCCN)C(=O)N[C@@H](CCCCN)C(=O)N[C@@H](CCCCN)C(N)=O)[C@@H](C)O)[C@@H](C)CC)[C@@H](C)O | immunoaffinity LC-MS/MS | healthy human subjects, plasma | subcutaneous, 10 mg once weekly, day 36 after 6 doses, steady state, geometric mean |  | AUCtau | 1.45 nM·h
O=C1NC(=O)[C@@H](c2cn3c4c(cccc24)CCC3)[C@@H]1c1c[nH]c2ccccc12 |  | human, plasma | oral, 120 mg, steady state, median, added: topotecan intravenous |  | AUC(0-12h) | 12 µg·h/mL
Cc1c2c(n(-c3ccc(Cl)cc3Cl)c1-c1ccc(OS(=O)(=O)CCC(F)(F)F)cc1)CCN(N1CCCCC1)C2=O |  | cynomolgus monkey 1, plasma | intravenous infusion, 0.2 mg/kg, 90 min, PET study midpoint |  | plasma concentration | 50 nM
CS(=O)(=O)n1cc2c(n1)CN([C@H]1CO[C@H](c3cc(F)ccc3F)[C@@H](N)C1)C2 |  | healthy male human, plasma | oral, 5 mg single, fasted, geometric mean |  | concentration at 168 h | 6.75 nM
CCOC(=O)c1ccc2c(c1)C(=O)CCc1ccccc1C(=O)N2 | nephelometry | aqueous buffer | 30 min, pH 6.5 |  | kinetic solubility | > 0.05 mg/mL
CCOc1ccc(Cc2cc([C@@H]3S[C@H](CO)[C@@H](O)[C@H](O)[C@H]3O)c(OC)cc2C)cc1 |  | human, plasma | oral, 5 mg/day, day 7, multiple dose before breakfast |  | elimination rate constant | 1.86e-05 ± 3.31e-06 s⁻¹
C=CC(=O)Nc1cc(Nc2nccc(-c3cn(C)c4ccccc34)n2)c(OC)cc1N(C)CCN(C)C |  | Sprague-Dawley rat, male, plasma | oral, 10 mg/kg, added: avitinib 30 mg/kg single dose on day 7 |  | MRT(0-t) | 10.6 ± 0.71 h
CN[C@@H]1[C@H](O)[C@H](NC)[C@H]2O[C@]3(O)[C@H](O[C@@H]2[C@H]1O)O[C@H](C)C[C@H]3NC(=O)Cc1cc(Cl)ccn1 | glutathione conjugation | rat liver S9 | 100 µM, 2 h, pH 7.4, added: glutathione 0.2 mM |  | parent remaining | 71.9%
Nc1nc2c(ncn2COCCO)c(=O)[nH]1 |  | excised rabbit cornea | 1 mM, 3 h, pH 7.4, added: BCH 5 mM |  | Papp | 20.3 ± 4.2 nm/s
